Earlier results as cited in several papers.
Numbered parts are unrelated; values within a part may stem from several laboratories. ± marks the error that the study gave.

Study 1
Structure (SMILES): C[C@H]1CO[C@@H]2Cn3cc(C(=O)NCc4ccc(F)cc4F)c(=O)c(O)c3C(=O)N12
Organism: HIV-1
Observed: viral replication
Technique: single-round vector infection
Endpoint: EC50
system = IN N155H; result = 2.2 ± 0.3 nM
system = IN G118R; result = 35.5 ± 2.1 nM
system = IN R263K; result = 7.1 ± 0.1 nM

Further values, each from its own experiment
SMILES = Fc1ccc([C@@H]2CCNC[C@H]2COc2ccc3c(c2)OCO3)cc1; target or system = Ebola virus; test = viral replication, eGFP reporter virus; system = Vero E6; endpoint = IC50; result = 7.45 µM
SMILES = CC(C)(C)[C@H](NC(=O)C(F)(F)F)C(=O)N1C[C@H]2[C@@H]([C@H]1C(=O)N[C@H](C#N)C[C@@H]1CCNC1=O)C2(C)C; target or system = Huh-7; test = cytotoxicity; endpoint = CC50; result = > 100 µM
SMILES = O=c1[nH]c2ccccc2n1C1CCN(CCCC(c2ccc(F)cc2)c2ccc(F)cc2)CC1; target or system = Ebola virus; test = viral replication, eGFP reporter virus; system = Vero E6; endpoint = IC50; result = 3.12 µM
SMILES = C[C@@H]1CCO[C@H]2Cn3cc(C(=O)NCc4ccc(F)cc4F)c(=O)c(O)c3C(=O)N12; target or system = HIV-1; test = viral replication; system = integrase N155H mutant; endpoint = EC50; result = 3.6 ± 1.3 nM
SMILES = CC(CN1c2ccccc2Sc2ccccc21)N(C)C (stereo not drawn); target or system = SARS-CoV; test = cytopathic effect; system = Vero E6; endpoint = EC50; result = 7540 nM
SMILES = CN(C)CCCN1c2ccccc2Sc2ccc(Cl)cc21; target or system = SARS-CoV; test = cytopathic effect; system = Vero E6; endpoint = EC50; result = 13000 nM
